# Experimental data collected from several papers.
# Every numbered part comes from another study and shows a few of its results, in no order.

# Series 1
# Target: Sal-like protein 4, full length isoform A (SALL4, Homo sapiens, UniProt Q9UJQ4, residues 1-1053)
# UniProt Q9UJQ4, sequence (whole entry, looked up): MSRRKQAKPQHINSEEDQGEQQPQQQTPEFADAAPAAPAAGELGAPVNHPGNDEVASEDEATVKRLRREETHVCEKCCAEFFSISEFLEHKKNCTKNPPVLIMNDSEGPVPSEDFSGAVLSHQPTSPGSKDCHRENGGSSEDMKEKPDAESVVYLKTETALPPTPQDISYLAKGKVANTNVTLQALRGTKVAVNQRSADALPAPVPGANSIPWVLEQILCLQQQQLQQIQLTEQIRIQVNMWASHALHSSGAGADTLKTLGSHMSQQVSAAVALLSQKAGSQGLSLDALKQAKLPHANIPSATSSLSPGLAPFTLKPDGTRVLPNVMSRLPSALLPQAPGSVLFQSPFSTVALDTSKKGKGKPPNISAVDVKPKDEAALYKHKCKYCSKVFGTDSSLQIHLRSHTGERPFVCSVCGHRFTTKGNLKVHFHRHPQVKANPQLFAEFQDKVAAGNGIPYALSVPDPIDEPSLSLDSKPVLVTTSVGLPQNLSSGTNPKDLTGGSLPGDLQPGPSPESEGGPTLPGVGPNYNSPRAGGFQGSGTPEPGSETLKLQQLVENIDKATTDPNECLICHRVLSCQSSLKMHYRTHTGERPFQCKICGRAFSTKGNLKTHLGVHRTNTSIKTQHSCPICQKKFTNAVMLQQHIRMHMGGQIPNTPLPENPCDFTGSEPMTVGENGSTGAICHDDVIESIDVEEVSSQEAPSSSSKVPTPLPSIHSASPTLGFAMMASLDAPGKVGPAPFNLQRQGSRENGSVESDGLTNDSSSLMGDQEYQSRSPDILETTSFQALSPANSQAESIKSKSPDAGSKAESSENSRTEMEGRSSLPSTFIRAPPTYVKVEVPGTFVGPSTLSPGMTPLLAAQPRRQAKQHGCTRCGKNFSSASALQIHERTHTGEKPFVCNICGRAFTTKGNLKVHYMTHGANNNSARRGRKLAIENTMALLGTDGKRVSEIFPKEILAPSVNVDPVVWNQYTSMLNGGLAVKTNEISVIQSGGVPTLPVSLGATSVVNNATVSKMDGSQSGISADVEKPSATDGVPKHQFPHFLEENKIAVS
# Method: universal PBM
# Molecule type: double-stranded DNA, one strand shown
# Sample: in vitro
# Tested at: 600 nM
# Setting: 8-mer, flanks averaged, mean of replicates
# Reading: higher = stronger binding
Oligonucleotide,E-score
ACGCAGCG,-0.319
CGATTCTC,-0.0167
GAAGTGAC,-0.0629
AGAAAGTA,0.221
GCTCGGCC,-0.344

# Series 2
# Target: RNA binding protein fox-1 homolog 2, RRM domain, GST-SBP tag (RBFOX2, Homo sapiens, UniProt O43251-10, residues 100-194)
# Method: RNA Bind-n-Seq
# Molecule type: RNA
# Sample: in vitro
# Tested at: 365 nM
# Setting: natural RNA segment, single round, ends assumed
# Relative to: no-protein control
# Reading: higher = stronger binding
Oligonucleotide,RBNS enrichment (R)
GGGAGUUCUACAGUCCGACGAUCGAAUGUCAUUGUUUUUAAAACUGUUUUAUAUCUUAAGAGUGCCUUAUUAAAGUAUAGAUGUAUGUCUUAAAAUGUGGGUGAUAGGAAUUUUAAAGAUUUAUAUAAUGCAUUGGAAUUCUCGGGUGCCAA,1.54
GGGAGUUCUACAGUCCGACGAUCAUGGAGGCUCAGGUCCAUCAGAAUCAGGGACUUGUGAUUUCAGUCACCUUGCUUCUGGGUUGUGUUUCUUCUCUUACUACCUCACUGCACCUGGACACUAGAGUGGAUGAUGGAAUUCUCGGGUGCCAA,0.721
GGGAGUUCUACAGUCCGACGAUCCUUUCCAGUCCACGUGUGUAUAUAAUGAUAUCUAUAUUUUUGCCCAGGUCUGGGUAUUGCUCCUGCCCAGACCCUGACAUCCCUUUCCACUGUGUGUGUGACCAUGCUGGUGGAAUUCUCGGGUGCCAA,1.67

# Series 3
# Target: Histone acetyltransferase KAT6A, winged helix 1, GST fusion (KAT6A, Homo sapiens, UniProt Q92794, residues 1-85)
# Method: protein binding microarray
# Molecule type: double-stranded DNA, one strand shown
# Sample: in vitro
# Tested at: not given
# Setting: 8-mer, flanks averaged, mean of 2 arrays, mostly near background
# Relative to: not given
# Reading: higher = stronger binding
# Target sequence (chain): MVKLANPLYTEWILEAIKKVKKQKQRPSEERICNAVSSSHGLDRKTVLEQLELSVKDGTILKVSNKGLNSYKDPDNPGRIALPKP
Oligonucleotide,E-score
ACCTCTTA,0.0092
AAGCTAAT,-0.128
CAAGAGGG,-0.241
AGAAAAGC,0.0129

# Single results of other studies
Molecule,target,assay,test system,conditions,how to read,quantity,value
"PhoQ, residues 284 288 289 292 302 303 SCCLKL","PhoP, residues 12 14 15 18 19 QWHVF (Escherichia coli, UniProt P23836)","Sort-seq, item: YFP reporter",E. coli,"PhoQ-PhoP variant library, with: 10 µM Mg2+","relative to: high Mg2+ state, higher = stronger signaling",fold induction,6.84
